Results from different studies.
Numbered parts are unrelated; each lists some results of a single study. Substitutions count along the parent as printed.
UniProt P54764, sequence (whole entry, looked up): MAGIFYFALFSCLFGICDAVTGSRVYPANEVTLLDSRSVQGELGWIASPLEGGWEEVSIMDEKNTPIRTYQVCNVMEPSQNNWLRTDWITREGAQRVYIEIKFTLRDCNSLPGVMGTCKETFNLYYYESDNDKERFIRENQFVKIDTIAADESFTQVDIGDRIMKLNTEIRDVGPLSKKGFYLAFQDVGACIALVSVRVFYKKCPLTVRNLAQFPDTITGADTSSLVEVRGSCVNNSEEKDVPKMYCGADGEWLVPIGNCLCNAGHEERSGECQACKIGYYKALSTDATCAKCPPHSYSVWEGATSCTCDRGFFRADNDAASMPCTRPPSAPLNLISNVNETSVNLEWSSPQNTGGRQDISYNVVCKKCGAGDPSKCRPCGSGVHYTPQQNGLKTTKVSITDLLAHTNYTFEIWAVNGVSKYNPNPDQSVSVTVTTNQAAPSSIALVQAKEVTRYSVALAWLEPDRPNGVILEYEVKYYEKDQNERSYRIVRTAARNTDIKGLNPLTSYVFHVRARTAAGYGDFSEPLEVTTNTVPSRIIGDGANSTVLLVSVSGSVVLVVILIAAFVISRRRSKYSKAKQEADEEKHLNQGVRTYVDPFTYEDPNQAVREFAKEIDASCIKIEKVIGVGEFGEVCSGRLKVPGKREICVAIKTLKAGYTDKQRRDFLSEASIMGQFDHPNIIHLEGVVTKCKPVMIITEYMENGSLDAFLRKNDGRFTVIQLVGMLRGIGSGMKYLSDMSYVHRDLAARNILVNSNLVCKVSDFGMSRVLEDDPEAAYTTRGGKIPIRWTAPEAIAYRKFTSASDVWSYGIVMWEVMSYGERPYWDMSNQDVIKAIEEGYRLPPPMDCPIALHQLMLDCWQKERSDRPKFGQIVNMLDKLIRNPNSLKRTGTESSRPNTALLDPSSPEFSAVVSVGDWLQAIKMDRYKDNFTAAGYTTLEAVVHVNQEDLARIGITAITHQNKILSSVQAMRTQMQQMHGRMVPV
UniProt Q15835, sequence (whole entry, looked up): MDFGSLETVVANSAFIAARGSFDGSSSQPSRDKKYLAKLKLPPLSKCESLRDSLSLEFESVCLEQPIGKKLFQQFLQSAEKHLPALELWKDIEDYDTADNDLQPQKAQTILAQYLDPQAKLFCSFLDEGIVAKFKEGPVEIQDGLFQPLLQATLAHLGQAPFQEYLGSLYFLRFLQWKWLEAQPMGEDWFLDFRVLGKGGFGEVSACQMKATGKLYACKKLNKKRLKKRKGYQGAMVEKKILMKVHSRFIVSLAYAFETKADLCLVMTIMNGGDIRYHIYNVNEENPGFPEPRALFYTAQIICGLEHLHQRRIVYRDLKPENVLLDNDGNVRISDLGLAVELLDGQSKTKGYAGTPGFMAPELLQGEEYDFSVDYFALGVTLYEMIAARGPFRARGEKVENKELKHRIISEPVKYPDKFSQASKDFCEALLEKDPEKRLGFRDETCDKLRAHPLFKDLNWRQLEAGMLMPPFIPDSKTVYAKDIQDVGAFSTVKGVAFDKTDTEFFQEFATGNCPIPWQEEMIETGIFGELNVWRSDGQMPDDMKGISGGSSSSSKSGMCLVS
UniProt Q9P0L2, sequence (whole entry, looked up): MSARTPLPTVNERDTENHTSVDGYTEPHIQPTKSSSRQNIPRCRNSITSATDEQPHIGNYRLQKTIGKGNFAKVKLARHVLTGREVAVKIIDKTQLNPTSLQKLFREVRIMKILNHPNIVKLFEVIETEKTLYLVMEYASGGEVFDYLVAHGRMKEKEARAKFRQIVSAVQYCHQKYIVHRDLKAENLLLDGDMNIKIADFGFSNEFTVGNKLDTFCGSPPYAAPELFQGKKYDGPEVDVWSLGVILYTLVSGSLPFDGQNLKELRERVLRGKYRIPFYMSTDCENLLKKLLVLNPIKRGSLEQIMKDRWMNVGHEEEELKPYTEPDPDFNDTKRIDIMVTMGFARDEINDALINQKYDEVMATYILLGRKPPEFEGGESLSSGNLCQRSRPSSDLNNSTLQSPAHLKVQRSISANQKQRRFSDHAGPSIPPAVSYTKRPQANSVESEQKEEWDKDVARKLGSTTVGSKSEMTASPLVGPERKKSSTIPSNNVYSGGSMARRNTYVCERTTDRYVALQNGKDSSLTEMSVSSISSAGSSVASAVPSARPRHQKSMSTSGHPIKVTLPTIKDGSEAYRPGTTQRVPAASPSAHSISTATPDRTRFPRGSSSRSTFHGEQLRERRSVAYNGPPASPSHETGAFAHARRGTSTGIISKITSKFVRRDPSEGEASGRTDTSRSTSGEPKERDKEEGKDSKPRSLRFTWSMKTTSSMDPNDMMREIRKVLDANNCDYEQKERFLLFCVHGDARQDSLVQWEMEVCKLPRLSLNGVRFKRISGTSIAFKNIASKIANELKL
UniProt Q8NI60, sequence (whole entry, looked up): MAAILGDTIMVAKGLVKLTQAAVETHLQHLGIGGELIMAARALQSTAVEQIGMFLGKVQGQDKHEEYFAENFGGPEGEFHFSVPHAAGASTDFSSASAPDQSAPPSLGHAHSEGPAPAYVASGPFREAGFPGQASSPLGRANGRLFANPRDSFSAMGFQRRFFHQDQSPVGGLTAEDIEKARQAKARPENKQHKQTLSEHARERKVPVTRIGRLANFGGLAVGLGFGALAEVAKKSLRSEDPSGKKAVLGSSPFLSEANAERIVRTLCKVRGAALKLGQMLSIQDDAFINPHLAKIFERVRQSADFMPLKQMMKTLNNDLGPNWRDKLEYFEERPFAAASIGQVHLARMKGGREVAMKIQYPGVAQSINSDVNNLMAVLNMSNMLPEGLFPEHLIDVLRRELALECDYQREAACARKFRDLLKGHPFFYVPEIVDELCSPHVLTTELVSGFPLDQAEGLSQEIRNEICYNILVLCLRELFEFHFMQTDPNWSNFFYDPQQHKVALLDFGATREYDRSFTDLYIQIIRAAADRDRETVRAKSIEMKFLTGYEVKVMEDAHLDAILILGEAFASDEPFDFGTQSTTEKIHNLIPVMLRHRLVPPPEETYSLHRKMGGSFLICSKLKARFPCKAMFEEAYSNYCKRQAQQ

Block 1
Change: D92P
Target: ABI1, truncated, D143A, DHFR fusion (Arabidopsis thaliana)
Technique: DHFR PCA, deep sequencing
Medium: yeast
Notes: methotrexate growth selection, single substitutions
Relative to: wild-type fitted maximum
Reading: higher = stronger binding
Starting sequence: PYL1, truncated, DHFR fusion (Arabidopsis thaliana); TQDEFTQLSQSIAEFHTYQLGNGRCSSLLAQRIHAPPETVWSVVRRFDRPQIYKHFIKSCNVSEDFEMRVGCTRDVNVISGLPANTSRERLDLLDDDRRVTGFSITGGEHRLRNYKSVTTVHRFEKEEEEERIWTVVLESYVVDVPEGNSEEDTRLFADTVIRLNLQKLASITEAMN; partner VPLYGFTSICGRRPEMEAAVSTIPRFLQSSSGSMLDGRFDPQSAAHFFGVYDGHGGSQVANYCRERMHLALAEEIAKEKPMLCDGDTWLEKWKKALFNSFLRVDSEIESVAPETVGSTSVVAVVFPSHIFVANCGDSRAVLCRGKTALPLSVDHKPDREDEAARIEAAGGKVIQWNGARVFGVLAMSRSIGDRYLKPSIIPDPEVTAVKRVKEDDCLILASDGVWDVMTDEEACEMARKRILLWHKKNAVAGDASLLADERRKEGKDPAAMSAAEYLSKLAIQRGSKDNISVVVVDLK
For added: (+)-ABA 0.032 µM: “relative binding score” read 5.33%.
added: (+)-ABA 4.8 µM — “relative binding score”: -10.9%.
added: (+)-ABA 17 µM — “relative binding score”: -7.75%.
It gave -14% for “relative binding score” (added: (+)-ABA 58 µM).
It gave 2.78% for “relative binding score” (added: (+)-ABA 0 µM).
The “relative binding score” was 3.88% (added: (+)-ABA 710 µM).

Block 2
Structure (SMILES): Cc1nc(C2CCN(C(=O)c3ccc(OC(F)(F)F)cc3N)CC2)c2ncc(N3CCN(C)CC3)cc2n1
Observed: cell-free assay
Technique: competition with immobilised ligand
Tested at: 1 µM
GRK1 (Homo sapiens, UniProt Q15835) — remaining binding: 100%.
The remaining binding was 100% (EPHA4 (Homo sapiens, UniProt P54764)).
The remaining binding was 100% (COQ8A (Homo sapiens, UniProt Q8NI60)).
MARK1 (Homo sapiens, UniProt Q9P0L2) — remaining binding: 100%.

Block 3
Target: PABPC1L2, full length, GST fusion (mouse, UniProt A0ABA7IW68)
Technique: RNAcompete
Form: RNA
Medium: in vitro
Tested at: 20 nM
Notes: 7-mer, probes averaged, single round
Relative to: mean of 7-mers
Reading: higher = stronger binding
Construct (chain): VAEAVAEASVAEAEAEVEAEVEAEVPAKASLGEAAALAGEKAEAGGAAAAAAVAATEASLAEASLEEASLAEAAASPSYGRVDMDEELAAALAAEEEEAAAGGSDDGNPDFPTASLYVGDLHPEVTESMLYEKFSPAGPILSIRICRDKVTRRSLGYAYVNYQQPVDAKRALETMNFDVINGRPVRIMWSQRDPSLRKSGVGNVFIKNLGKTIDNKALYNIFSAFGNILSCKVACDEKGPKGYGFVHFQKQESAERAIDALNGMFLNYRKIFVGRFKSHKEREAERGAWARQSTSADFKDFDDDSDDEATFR
For `CCCGCAU`, the 7-mer Z-score was -0.316.
`UAGUUUU` gave a 7-mer Z-score of -0.519.
For `AACAGGA`, the 7-mer Z-score was 0.695.
The 7-mer Z-score of `CCAAGGC` is reported as -0.0373.
For `AACGAUC`, the 7-mer Z-score was 0.00436.
`UUAUGGG` has a 7-mer Z-score of 0.0859.
The 7-mer Z-score of `ACUCAAA` is reported as 0.539.
`UUCCUGG` has a 7-mer Z-score of -0.311.

Block 4
Target: NUAK family SNF1-like kinase 2 (NUAK2, Homo sapiens, UniProt Q9H093)
Observed: enzyme activity
Mode: inhibitor
Tested at: 0.5 µM
Relative to: control
Target sequence (Q9H093 1-628): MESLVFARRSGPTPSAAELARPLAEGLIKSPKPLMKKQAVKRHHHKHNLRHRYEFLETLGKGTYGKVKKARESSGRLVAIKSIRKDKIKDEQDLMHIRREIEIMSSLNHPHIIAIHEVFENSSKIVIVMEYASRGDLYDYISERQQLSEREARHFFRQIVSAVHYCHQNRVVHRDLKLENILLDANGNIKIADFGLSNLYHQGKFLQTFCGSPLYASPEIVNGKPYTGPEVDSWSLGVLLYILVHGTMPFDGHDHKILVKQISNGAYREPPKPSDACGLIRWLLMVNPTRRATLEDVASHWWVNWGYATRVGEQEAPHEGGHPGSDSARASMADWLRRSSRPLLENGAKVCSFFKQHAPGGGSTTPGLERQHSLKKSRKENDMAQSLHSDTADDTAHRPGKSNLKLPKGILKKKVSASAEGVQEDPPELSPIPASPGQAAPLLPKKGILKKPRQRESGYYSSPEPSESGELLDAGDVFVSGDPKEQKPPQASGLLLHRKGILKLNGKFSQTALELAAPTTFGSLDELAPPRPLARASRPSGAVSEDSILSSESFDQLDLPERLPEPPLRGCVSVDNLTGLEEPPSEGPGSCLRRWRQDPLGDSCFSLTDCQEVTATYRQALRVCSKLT
`COc1cc2c(N3CCN(C(=O)Nc4ccc(OC(C)C)cc4)CC3)ncnc2cc1OCCCN1CCCCC1` has a remaining activity of 100%.
The remaining activity of `NC(=O)c1ccc(-c2nc(-c3ccc4c(c3)OCCO4)c(-c3ccccn3)[nH]2)cc1` is reported as 102%.
For `O=Nc1c(-c2c(O)[nH]c3ccccc23)[nH]c2ccccc12`, the remaining activity was 72.5%.
The remaining activity of `CC(C)(C)c1nc2c3cc[nH]c(=O)c3c3cc(F)ccc3c2[nH]1` is reported as 66%.
The remaining activity of `CCCCc1c(-c2ccc(O)cc2)[nH]c2nccnc12` is reported as 64.8%.
`CCN(CC)CCCCN1c2ccccc2Oc2ccc(Cl)cc21` gave a remaining activity of 90.9%.
`NC(=O)c1cccc(-c2cc(Nc3ccc(OC(F)(F)F)cc3)ncn2)c1` gave a remaining activity of 87.8%.
The remaining activity of `O=c1c(-c2ccc(F)cc2)c(-c2ccncc2)[nH]n1-c1ccc(Cl)cc1` is reported as 88.7%.
`N#CC(c1ccnc(NCCc2cccnc2)n1)c1nc2ccccc2s1` (stereo not drawn) has a remaining activity of 72.5%.
With `CNc1cc2c(Nc3cccc(Br)c3)ncnc2cn1` the remaining activity was 85%.
`N#C/C(=C(/N)SC1C=CC=CC1)c1cccc(C(O)c2ccncc2)c1` (stereo not drawn) gave a remaining activity of 79.2%.
With `CC(C)n1cnc2c(Nc3cccc(Cl)c3)nc(NCCO)nc21` the remaining activity was 89.8%.
With `O=C(c1ccccc1)c1ccc(N2CCOCC2)cc1O` the remaining activity was 111%.
`C[C@@H](N)[C@H]1CC[C@H](C(=O)Nc2ccncc2)CC1` gave a remaining activity of 122%.

Mixed results
`PhoQ, residues 284 288 289 292 302 303 SVTLVV` gave a fold induction of 11.1 (PhoP, residues 12 14 15 18 19 IQFRS (Escherichia coli, UniProt P23836); Sort-seq, item: YFP reporter; E. coli; PhoQ-PhoP variant library, added: 10 µM Mg2+; relative to: high Mg2+ state, higher = stronger signaling).

A few entries again (block 4):
The remaining activity of `O=c1c(-c2ccc(F)cc2)c(-c2ccncc2)[nH]n1-c1ccc(Cl)cc1` is reported as 88.7%.
`N#CC(c1ccnc(NCCc2cccnc2)n1)c1nc2ccccc2s1` (stereo not drawn) has a remaining activity of 72.5%.
With `CNc1cc2c(Nc3cccc(Br)c3)ncnc2cn1` the remaining activity was 85%.
`N#C/C(=C(/N)SC1C=CC=CC1)c1cccc(C(O)c2ccncc2)c1` (stereo not drawn) gave a remaining activity of 79.2%.
